Published values gathered from unrelated publications.
A part holds a random share of what one study measured.

Block 1
Target: Interferon regulatory factor 7, full length, phosphomimetic (IRF7, Homo sapiens, UniProt Q92985, residues 1-503, S471D/S472D/S475D/S476D/S477D/S483D/S484D/S487D)
Technique: protein-binding microarray
Molecule type: double-stranded DNA, one strand shown
Medium: in vitro
Tested at: 2200 nM top
Notes: 60-bp whole probe
Together with: salmon DNA 0.4 mg/ml
Baseline: random background probes
Direction: higher = stronger binding
Shared flanks, not repeated: GCCTAGCAC … GTCTTGATTCGCTTGACGCTGCTG
Residues (chain): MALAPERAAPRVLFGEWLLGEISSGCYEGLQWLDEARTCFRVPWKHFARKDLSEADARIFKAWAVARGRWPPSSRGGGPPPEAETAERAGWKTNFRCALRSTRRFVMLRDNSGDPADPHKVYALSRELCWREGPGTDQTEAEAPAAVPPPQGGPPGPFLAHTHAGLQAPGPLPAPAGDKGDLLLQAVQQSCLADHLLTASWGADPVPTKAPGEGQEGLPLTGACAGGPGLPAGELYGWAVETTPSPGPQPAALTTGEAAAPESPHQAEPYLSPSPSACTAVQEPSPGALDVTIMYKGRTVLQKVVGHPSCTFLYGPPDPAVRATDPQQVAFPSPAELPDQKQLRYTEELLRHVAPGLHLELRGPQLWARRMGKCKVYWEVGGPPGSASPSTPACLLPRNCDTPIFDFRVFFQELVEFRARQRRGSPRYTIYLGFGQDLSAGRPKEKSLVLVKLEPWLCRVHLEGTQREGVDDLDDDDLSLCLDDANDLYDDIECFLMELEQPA
| Oligonucleotide | fitted relative affinity [z-score] |
| --- | --- |
| GATATTATATCTGTGTTATTGTGCTAG | 1.03 |
| GACGGTTTCGGGACTGGGCACGTGCTA | 3.37 |
| GACGGTTTCGGGTATTGGGACGTGCTA | 5.44 |
| TAAGATATCAGACTGGATTAGTGCTAG | -0.524 |
| TTAGGTTTCGACTTTTGGTTAGTGCTA | 5.08 |
| GACGGTATCGCACTGGGGACGTGCTAG | -0.118 |
| TTAGATTTCAGTTCCGATAAGTGCTAG | 1.44 |
| TCATTTTTTTTTTTTGTACTGTGCTAG | 2.34 |
| GACGGTATCGACTATCGAGACGTGCTA | -0.0707 |
| TTAGCTTCCCTTTTCCTTTAGTGCTAG | 2.99 |
| TTAGGTCTCCTACTGCTTTCGTGCTAG | 1.65 |
| GACGAATTCGGGTATCGAGACGTGCTA | 0.463 |
| TTAGGAATCGGTCTCGGTTAGTGCTAG | 0.364 |
| GACGGTATCGTTATCCTGACGTGCTAG | 0.924 |
| TTAGGACTGGACTCTCGGTTAGTGCTA | -0.258 |
| TCATTTTTTTCCCTGAAACTGTGCTAG | 1.4 |

Block 2
Target: Max-binding protein MNT, bHLH-zipper, MAX partner unstated (MNT, Homo sapiens, UniProt Q99583, residues 220-300)
Technique: protein-binding microarray
Molecule type: double-stranded DNA, one strand shown
Medium: in vitro
Tested at: not given
Notes: k-mer, scored over probes, only values ≥0.25
Direction: higher = stronger binding
Residues (chain): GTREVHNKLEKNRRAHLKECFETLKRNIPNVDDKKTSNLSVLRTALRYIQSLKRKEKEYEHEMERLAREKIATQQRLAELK
| Oligonucleotide | E-score |
| --- | --- |
| CCTCCCCG | 0.285 |
| GTGGGGAA | 0.3 |
| CCATGGGG | 0.319 |
| CAGCCATG | 0.276 |
| AATGCGTG | 0.266 |
| GCGCAACC | 0.303 |
| CAACACGA | 0.277 |
| ACATGAGT | 0.299 |
| CAACCATG | 0.338 |
| CACCCTCC | 0.281 |
| GGCGTGAC | 0.35 |
| GCGGACAC | 0.251 |
| CACGTCCA | 0.267 |
| AGCGTGCA | 0.412 |
| CACGAGCG | 0.346 |
| CCCGTGTA | 0.282 |
| AGTGCGTG | 0.273 |
| AACGTGGC | 0.426 |
| CCACGTTC | 0.389 |
| ACGCTAAC | 0.308 |
| CGTGGGAA | 0.389 |
| AGTATGGC | 0.279 |
| CACATGAC | 0.447 |
| AAAGCACG | 0.301 |
| ACCCCGTG | 0.406 |

Block 3
Target: Prothrombin, mature alpha-thrombin (F2, Homo sapiens, UniProt P00734)
Technique: aptamer microarray, sandwich
Molecule type: DNA with 2'F-ANA
Medium: in vitro
Tested at: 200 nM
Notes: whole 15-mer aptamer, many near background
Together with: Cy3 exosite-II aptamer, 400 nM
Direction: higher = stronger binding
Oligonucleotide: GGTTGGTGTGGTTGG
| Modification | mean fluorescence intensity |
| --- | --- |
| 2'F-ANA at 1 2 7 12 14 | 80.6 a.u. |
| 2'F-ANA at 3 4 5 8 11 15 | 88.9 a.u. |
| 2'F-ANA at 1 2 3 5 8 10 12 13 | 55.9 a.u. |
| 2'F-ANA at 3 7 8 9 10 12 14 15 | 431 a.u. |
| 2'F-ANA at 2 3 4 8 9 10 13 | 289 a.u. |
| 2'F-ANA at 4 5 6 8 9 10 11 13 14 15 | 67.5 a.u. |
| 2'F-ANA at 1 2 3 5 6 7 9 11 14 | 45.6 a.u. |
| 2'F-ANA at 3 5 7 8 10 13 15 | 115 a.u. |
| 2'F-ANA at 1 3 4 6 7 8 9 10 11 | 60.7 a.u. |
| 2'F-ANA at 3 5 6 8 11 15 | 117 a.u. |
| 2'F-ANA at 1 2 3 6 7 8 13 15 | 185 a.u. |
| 2'F-ANA at 1 4 6 8 12 13 14 15 | 58 a.u. |
| 2'F-ANA at 1 5 7 13 14 | 42.3 a.u. |
| 2'F-ANA at 1 3 5 7 8 11 12 15 | 126 a.u. |
| 2'F-ANA at 2 6 10 13 14 | 76.9 a.u. |
| 2'F-ANA at 5 6 8 10 11 12 13 14 | 48.6 a.u. |
| 2'F-ANA at 3 6 8 9 10 11 13 15 | 401 a.u. |
| 2'F-ANA at 3 9 12 13 14 15 | 592 a.u. |
| 2'F-ANA at 9 10 12 14 15 | 113 a.u. |
| 2'F-ANA at 1 2 6 9 14 | 79 a.u. |
| 2'F-ANA at 3 7 | 1400 a.u. |
| 2'F-ANA at 1 4 6 8 11 13 15 | 88.7 a.u. |
| 2'F-ANA at 2 5 6 7 10 12 15 | 54 a.u. |
| 2'F-ANA at 1 3 4 5 6 8 9 10 11 12 14 | 47.9 a.u. |
| 2'F-ANA at 1 3 4 5 7 10 11 12 15 | 77.7 a.u. |

Block 4
Target: Sal-like protein 4, full length isoform B (SALL4, Homo sapiens, UniProt Q9UJQ4-2, residues 1-616)
Technique: universal PBM
Molecule type: double-stranded DNA, one strand shown
Medium: in vitro
Tested at: not given
Notes: 8-mer, flanks averaged, mean of replicates
Direction: higher = stronger binding
Construct (chain): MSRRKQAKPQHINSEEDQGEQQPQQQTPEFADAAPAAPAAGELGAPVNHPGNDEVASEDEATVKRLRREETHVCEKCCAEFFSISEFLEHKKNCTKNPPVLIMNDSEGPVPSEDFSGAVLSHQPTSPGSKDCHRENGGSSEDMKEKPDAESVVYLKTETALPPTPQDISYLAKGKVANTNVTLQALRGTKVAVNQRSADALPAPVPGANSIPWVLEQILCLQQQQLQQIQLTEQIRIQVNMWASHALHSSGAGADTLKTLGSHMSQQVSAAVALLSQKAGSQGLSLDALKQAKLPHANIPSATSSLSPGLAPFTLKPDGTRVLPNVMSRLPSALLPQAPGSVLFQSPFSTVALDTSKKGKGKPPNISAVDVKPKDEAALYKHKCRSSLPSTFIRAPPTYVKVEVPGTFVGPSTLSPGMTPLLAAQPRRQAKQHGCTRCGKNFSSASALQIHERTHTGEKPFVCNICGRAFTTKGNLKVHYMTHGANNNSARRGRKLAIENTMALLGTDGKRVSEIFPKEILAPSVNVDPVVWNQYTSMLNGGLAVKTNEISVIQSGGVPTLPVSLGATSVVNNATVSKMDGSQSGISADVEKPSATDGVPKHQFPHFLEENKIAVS
| Oligonucleotide | E-score |
| --- | --- |
| AATTCGAG | 0.0907 |
| ATTTATGG | 0.331 |
| GGAGTCTA | -0.105 |
| AGTGAGTA | 0.165 |
| CAACGAGC | -0.248 |
| ATGTAGCA | 0.11 |
| AGTTCAAG | 0.169 |
| AACTTTCT | 0.177 |
| CATGACAC | 0.187 |
| GAATACAA | 0.261 |
| AAATGTCG | 0.0287 |
| CCGCCAAG | -0.223 |
| ACCACGAC | -0.168 |
| GATCTCTA | 0.0247 |
| CAGCTAGA | -0.179 |
| AGTTAGAG | -0.152 |
| CCATTCGC | -0.254 |
| CTATGATC | 0.126 |

Block 5
Target: Histone acetyltransferase KAT6A, winged helix 2, GST fusion (KAT6A, Homo sapiens, UniProt Q92794, residues 85-181)
Technique: protein binding microarray
Molecule type: double-stranded DNA, one strand shown
Medium: in vitro
Tested at: not given
Notes: 8-mer, flanks averaged, mean of 2 arrays, mostly near background
Baseline: not given
Direction: higher = stronger binding
Construct (chain): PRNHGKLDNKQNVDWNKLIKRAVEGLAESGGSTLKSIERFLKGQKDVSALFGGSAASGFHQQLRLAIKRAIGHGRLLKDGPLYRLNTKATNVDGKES
| Oligonucleotide | E-score |
| --- | --- |
| CTCCTAGC | -0.00494 |
| AGGAAAAT | 0.0177 |
| GTCCCCAC | -0.114 |
| GGAAGCTA | 0.301 |
| TTCATAAA | 0.0876 |
| ATTCCGTG | -0.0435 |
| AGAGGTTG | 0.075 |
| GTCAGAAC | 0.00435 |
| ATTTCCGC | 0.0997 |
| AGAATATG | -0.0832 |
| AGCTACGA | -0.177 |
| CAAATCGG | 0.0898 |
| GTCTCTCA | -0.0802 |
| GTGAGGTA | -0.00526 |
| GGGCCTCA | 0.179 |
| CTGGACGA | -0.144 |
| TCCAAAGA | 0.0392 |
| CACCCGCG | 0.217 |
| GCTGCTTA | 0.0281 |
| AAGCTTGT | 0.0437 |
| CCTCTGTA | -0.0852 |
| ACGCTTGA | 0.113 |
| CTGAGATA | -0.0809 |
| CGTACCCA | -0.0542 |
| ACCTGAGG | 0.04 |
